Assay results from different studies.
A part holds a random share of what one study measured.
Sequence of UniProt P50613 (whole entry, looked up): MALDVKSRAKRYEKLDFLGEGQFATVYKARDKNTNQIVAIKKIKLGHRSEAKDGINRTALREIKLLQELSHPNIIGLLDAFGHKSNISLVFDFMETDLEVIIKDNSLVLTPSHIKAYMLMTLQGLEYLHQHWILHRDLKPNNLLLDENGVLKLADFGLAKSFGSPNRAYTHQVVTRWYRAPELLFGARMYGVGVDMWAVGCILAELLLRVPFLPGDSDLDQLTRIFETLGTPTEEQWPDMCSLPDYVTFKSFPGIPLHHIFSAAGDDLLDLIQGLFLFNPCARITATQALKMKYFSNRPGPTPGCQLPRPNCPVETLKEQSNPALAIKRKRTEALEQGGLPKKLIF
Sequence of UniProt Q99755 (whole entry, looked up): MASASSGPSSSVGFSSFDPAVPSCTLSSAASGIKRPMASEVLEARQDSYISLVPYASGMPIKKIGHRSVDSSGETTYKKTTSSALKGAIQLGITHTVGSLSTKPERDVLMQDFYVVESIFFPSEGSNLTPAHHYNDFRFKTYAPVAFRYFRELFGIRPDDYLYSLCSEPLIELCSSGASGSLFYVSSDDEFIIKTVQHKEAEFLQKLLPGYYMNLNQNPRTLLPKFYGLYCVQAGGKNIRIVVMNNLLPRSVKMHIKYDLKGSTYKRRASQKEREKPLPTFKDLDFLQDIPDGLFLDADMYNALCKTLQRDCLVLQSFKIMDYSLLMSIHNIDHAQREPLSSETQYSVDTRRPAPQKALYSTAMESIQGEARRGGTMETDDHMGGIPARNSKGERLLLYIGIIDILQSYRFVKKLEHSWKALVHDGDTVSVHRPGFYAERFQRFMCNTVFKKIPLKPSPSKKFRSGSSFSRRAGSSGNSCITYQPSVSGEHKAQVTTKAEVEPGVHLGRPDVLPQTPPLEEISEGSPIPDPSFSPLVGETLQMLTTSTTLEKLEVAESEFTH
Sequence of UniProt Q9H093 (whole entry, looked up): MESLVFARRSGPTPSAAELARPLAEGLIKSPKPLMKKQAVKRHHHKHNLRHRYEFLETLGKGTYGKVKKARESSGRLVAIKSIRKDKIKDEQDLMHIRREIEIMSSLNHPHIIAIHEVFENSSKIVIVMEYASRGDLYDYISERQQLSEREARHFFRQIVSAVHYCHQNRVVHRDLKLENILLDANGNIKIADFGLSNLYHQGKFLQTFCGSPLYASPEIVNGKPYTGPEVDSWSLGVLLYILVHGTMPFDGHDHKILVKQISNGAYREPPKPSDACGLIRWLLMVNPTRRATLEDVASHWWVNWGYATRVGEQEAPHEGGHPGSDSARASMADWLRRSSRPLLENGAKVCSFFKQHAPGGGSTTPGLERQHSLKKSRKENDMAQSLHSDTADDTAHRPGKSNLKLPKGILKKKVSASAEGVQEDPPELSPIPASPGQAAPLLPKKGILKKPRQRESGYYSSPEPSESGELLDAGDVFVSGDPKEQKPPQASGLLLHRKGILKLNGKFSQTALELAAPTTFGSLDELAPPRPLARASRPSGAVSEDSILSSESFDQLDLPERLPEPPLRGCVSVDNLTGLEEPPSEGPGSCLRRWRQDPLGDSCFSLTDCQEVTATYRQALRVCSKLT
Sequence of UniProt O14920 (whole entry, looked up): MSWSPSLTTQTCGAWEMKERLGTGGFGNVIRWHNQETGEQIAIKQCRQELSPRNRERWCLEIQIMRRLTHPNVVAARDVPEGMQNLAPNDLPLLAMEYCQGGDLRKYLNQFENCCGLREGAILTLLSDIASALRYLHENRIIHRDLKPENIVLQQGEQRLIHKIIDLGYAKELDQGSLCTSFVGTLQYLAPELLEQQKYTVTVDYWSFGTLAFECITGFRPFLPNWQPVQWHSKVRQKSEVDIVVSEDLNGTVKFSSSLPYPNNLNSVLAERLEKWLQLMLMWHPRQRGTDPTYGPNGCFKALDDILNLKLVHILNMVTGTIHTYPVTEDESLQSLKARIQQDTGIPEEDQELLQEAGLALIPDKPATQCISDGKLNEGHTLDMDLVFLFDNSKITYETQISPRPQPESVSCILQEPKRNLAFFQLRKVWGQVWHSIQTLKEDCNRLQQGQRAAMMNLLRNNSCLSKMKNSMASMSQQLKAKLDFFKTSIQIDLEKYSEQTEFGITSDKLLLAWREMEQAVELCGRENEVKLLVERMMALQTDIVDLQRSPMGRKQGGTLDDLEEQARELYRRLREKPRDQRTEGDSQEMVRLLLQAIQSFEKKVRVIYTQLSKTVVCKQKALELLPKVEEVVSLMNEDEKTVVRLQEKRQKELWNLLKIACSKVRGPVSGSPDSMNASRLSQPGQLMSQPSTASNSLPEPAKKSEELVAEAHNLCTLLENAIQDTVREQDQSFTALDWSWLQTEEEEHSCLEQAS
Sequence of UniProt O96017 (whole entry, looked up): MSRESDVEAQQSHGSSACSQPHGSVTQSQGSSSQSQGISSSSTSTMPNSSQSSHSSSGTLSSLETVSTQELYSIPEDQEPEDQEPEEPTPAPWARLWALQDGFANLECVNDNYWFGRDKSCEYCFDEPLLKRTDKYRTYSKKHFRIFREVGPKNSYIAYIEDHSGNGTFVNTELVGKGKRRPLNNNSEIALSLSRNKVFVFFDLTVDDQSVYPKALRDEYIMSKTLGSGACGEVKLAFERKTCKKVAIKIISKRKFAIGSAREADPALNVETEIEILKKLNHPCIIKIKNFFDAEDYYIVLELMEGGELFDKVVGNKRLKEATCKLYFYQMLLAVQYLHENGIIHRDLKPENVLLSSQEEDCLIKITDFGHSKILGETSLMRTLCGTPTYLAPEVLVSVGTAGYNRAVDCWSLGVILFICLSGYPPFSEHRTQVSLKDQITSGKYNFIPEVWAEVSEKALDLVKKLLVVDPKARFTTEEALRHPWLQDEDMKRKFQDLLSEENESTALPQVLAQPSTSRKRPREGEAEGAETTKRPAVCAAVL
Sequence of UniProt Q96D53 (whole entry, looked up): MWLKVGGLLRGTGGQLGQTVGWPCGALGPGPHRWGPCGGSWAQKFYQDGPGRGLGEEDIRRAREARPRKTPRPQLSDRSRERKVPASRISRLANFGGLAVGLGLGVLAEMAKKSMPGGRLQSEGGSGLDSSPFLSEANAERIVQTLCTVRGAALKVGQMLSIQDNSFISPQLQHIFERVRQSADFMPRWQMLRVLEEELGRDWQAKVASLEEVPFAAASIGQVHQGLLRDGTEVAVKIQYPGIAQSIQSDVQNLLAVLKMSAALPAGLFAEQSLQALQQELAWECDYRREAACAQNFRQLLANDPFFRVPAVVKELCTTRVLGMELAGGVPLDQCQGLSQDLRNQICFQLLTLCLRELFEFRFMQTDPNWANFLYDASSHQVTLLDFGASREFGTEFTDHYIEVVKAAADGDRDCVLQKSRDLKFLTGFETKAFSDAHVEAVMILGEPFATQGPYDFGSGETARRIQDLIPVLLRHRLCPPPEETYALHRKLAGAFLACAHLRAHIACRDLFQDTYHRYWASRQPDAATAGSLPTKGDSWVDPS
Sequence of UniProt P45984 (whole entry, looked up): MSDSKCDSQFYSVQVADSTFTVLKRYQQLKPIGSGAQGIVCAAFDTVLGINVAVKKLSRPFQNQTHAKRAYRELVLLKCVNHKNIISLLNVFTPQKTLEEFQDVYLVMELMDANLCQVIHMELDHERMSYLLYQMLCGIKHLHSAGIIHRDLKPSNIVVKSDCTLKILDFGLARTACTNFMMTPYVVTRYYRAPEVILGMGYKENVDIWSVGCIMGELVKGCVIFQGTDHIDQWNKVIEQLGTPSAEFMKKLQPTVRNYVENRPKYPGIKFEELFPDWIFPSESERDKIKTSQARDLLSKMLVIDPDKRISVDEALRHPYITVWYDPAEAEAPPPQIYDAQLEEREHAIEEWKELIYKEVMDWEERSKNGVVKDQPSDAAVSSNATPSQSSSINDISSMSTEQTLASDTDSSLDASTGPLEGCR
Sequence of UniProt Q9Y2H1 (whole entry, looked up): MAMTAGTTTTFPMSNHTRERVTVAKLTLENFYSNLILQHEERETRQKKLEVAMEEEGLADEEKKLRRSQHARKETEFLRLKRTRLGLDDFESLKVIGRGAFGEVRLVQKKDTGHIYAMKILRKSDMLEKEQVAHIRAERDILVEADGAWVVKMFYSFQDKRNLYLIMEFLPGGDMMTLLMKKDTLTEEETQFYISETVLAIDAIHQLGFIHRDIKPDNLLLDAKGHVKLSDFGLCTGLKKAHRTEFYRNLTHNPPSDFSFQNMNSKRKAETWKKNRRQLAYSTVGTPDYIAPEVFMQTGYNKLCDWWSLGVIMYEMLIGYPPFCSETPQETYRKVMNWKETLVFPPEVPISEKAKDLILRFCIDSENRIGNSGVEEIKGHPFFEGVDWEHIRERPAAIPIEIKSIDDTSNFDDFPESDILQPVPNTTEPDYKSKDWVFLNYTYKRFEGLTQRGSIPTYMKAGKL
Sequence of UniProt P42685 (whole entry, looked up): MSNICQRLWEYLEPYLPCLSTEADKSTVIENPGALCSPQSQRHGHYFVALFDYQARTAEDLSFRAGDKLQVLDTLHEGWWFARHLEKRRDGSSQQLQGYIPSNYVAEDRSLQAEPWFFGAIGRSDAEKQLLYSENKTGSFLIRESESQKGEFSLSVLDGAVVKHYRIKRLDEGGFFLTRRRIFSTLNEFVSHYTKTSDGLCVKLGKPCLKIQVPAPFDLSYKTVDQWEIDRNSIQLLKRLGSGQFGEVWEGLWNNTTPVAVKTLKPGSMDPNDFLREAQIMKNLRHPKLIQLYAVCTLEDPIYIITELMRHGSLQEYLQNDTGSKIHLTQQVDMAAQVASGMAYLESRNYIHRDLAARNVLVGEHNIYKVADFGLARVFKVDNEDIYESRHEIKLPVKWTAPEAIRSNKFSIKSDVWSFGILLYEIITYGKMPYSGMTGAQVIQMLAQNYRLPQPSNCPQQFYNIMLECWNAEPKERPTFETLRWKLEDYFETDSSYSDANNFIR

Block 1 — Structure (SMILES): COc1cc2ncc(-c3ccccc3)nc2cc1OC; observed: enzyme activity; mode: inhibitor; tested at: 0.5 µM; baseline: control
| target | remaining activity [%] |
| --- | --- |
| Cyclin-dependent kinase 5, with p25 (CDK5, Homo sapiens, UniProt Q00535) | 94.6 |
| OXSR1 (Homo sapiens, UniProt O95747) | 100 |
| CHEK2 (Homo sapiens, UniProt O96017) | 94.2 |
| TGFBR1 (Homo sapiens, UniProt P36897) | 101 |
| Protein kinase C beta type, isoform beta-I (PRKCB, Homo sapiens, UniProt P05771) | 105 |
| cGMP-dependent protein kinase 1, isoform beta (PRKG1, Homo sapiens, UniProt Q13976) | 96.2 |
| NEK2 (Homo sapiens, UniProt P51955) | 85.3 |
| PRKACA (Homo sapiens, UniProt P17612) | 99.4 |
| MAPK9 (Homo sapiens, UniProt P45984) | 93.1 |
| CAMK2D (Homo sapiens, UniProt Q13557) | 87.5 |
| TGFBR2 (Homo sapiens, UniProt P37173) | 75 |
| Tyrosine-protein kinase Lyn, isoform B (LYN, Homo sapiens, UniProt P07948) | 96.9 |
| IKBKE (Homo sapiens, UniProt Q14164) | 98.9 |
| PRKCA (Homo sapiens, UniProt P17252) | 103 |
| DAPK2 (Homo sapiens, UniProt Q9UIK4) | 97.3 |
| STK39 (Homo sapiens, UniProt Q9UEW8) | 88 |
| STK10 (Homo sapiens, UniProt O94804) | 89.6 |
| MAP3K3 (Homo sapiens, UniProt Q99759) | 90.3 |
| DAPK1 (Homo sapiens, UniProt P53355) | 99.7 |
| STK11 (Homo sapiens, UniProt Q15831) | 86.8 |
| GRK3 (Homo sapiens, UniProt P35626) | 94.3 |
| CAMKK2 (Homo sapiens, UniProt Q96RR4) | 114 |
| IKBKB (Homo sapiens, UniProt O14920) | 101 |

Block 2 — observed: cell-free assay; technique: competition with immobilised ligand; tested at: 0.1 µM
Structure (SMILES): CC(C)CC(=O)N1CCc2nc(-c3ccc(Br)cc3)nc(N(C)Cc3ccccc3)c2C1
| target | remaining binding |
| --- | --- |
| FGFR4 (Homo sapiens, UniProt P22455) | 98% |
| SGK3 (Homo sapiens, UniProt Q96BR1) | 100% |
| TAOK3 (Homo sapiens, UniProt Q9H2K8) | 100% |
| FES (Homo sapiens, UniProt P07332) | 100% |
| SRPK2 (Homo sapiens, UniProt P78362) | 100% |
| Tyrosine-protein kinase ABL1, phosphorylated (ABL1, Homo sapiens, UniProt P00519, M351T) | 100% |
| ACVRL1 (Homo sapiens, UniProt P37023) | 99% |
| MAPK8 (Homo sapiens, UniProt P45983) | 100% |
| PIP4K2B (Homo sapiens, UniProt P78356) | 61% |
| CDK7 (Homo sapiens, UniProt P50613) | 65% |
| TIE1 (Homo sapiens, UniProt P35590) | 100% |
| TEC (Homo sapiens, UniProt P42680) | 100% |
| PIP5K1A (Homo sapiens, UniProt Q99755) | 100% |
| KIT (Homo sapiens, UniProt P10721, V559D/V654A) | 98% |
| NUAK2 (Homo sapiens, UniProt Q9H093) | 100% |
| PRKX (Homo sapiens, UniProt P51817) | 100% |
| EPHA6 (Homo sapiens, UniProt Q9UF33) | 100% |
| DYRK2 (Homo sapiens, UniProt Q92630) | 84% |
| DCLK3 (Homo sapiens, UniProt Q9C098) | 100% |
| MAP2K6 (Homo sapiens, UniProt P52564) | 100% |
| MAP3K19 (Homo sapiens, UniProt Q56UN5) | 100% |
| DAPK3 (Homo sapiens, UniProt O43293) | 100% |
| HIPK1 (Homo sapiens, UniProt Q86Z02) | 64% |
| NIM1K (Homo sapiens, UniProt Q8IY84) | 100% |
| EGFR (Homo sapiens, UniProt P00533, del747-752/P753S) | 99% |

Block 3 — mode: inhibitor
Compound: Cc1nc(Nc2ncc(C(=O)Nc3c(C)cccc3Cl)s2)cc(N2CCN(CCO)CC2)n1
| target | conditions | inhibition [%] |
| --- | --- | --- |
| CDK8 (Homo sapiens, UniProt P49336) | 10 µM | < 50 |
| CDK7 (Homo sapiens, UniProt P50613) | 10 µM | < 50 |
| ACVR1B (Homo sapiens, UniProt P36896) | 10 µM | 97 |
| STK24 (Homo sapiens, UniProt Q9Y6E0) | 10 µM | 66 |
| Ribosomal protein S6 kinase alpha-4, C-terminal kinase domain (RPS6KA4, Homo sapiens, UniProt O75676) | 10 µM | < 50 |
| IKBKB (Homo sapiens, UniProt O14920) | 10 µM | < 50 |
| PIK3C2B (Homo sapiens, UniProt O00750) | 10 µM | < 50 |
| EIF2AK4 (Homo sapiens, UniProt Q9P2K8, S808G) | 10 µM | 86 |
| MYLK3 (Homo sapiens, UniProt Q32MK0) | 1 µM | < 50 |
| PIP5K1A (Homo sapiens, UniProt Q99755) | 10 µM | < 50 |
| STK25 (Homo sapiens, UniProt O00506) | 10 µM | < 50 |
| MAPKAPK5 (Homo sapiens, UniProt Q8IW41) | 10 µM | < 50 |
| JAK3 (Homo sapiens, UniProt P52333) | 1 µM | 81 |
| CDK2 (Homo sapiens, UniProt P24941) | 1 µM | < 50 |
| INSRR (Homo sapiens, UniProt P14616) | 10 µM | < 50 |
| MAPKAPK2 (Homo sapiens, UniProt P49137) | 10 µM | < 50 |

Block 4 — observed: binding; tested at: 1 µM
Compound: Cc1ccc(NC(=O)c2ccnc(C(F)(F)F)c2)cc1-c1cc(OCCO)nc(N2CCOCC2)c1
| target | test | remaining binding [%] |
| --- | --- | --- |
| Tyrosine-protein kinase ABL1, phosphorylated (ABL1, Homo sapiens, UniProt P00519) | competition with immobilised ligand | 74 |
| FYN (Homo sapiens, UniProt P06241) | competition with immobilised ligand | 100 |
| DYRK1A (Homo sapiens, UniProt Q13627) | – | 100 |
| EGFR (Homo sapiens, UniProt P00533, del752-759) | – | 88 |
| COQ8B (Homo sapiens, UniProt Q96D53) | – | 100 |
| COQ8A (Homo sapiens, UniProt Q8NI60) | competition with immobilised ligand | 99 |
| FRK (Homo sapiens, UniProt P42685) | competition with immobilised ligand | 55 |
| NUAK2 (Homo sapiens, UniProt Q9H093) | – | 100 |
| Ribosomal protein S6 kinase alpha-1, N-terminal kinase domain (RPS6KA1, Homo sapiens, UniProt Q15418) | competition with immobilised ligand | 85 |
| CHEK2 (Homo sapiens, UniProt O96017) | – | 100 |
| PRKAA2 (Homo sapiens, UniProt P54646) | – | 100 |
| CDK11A (Homo sapiens, UniProt Q9UQ88) | – | 49 |
| STK38L (Homo sapiens, UniProt Q9Y2H1) | – | 96 |
| TNNI3K (Homo sapiens, UniProt Q59H18) | competition with immobilised ligand | 62 |
| MAK (Homo sapiens, UniProt P20794) | – | 90 |
| RET (Homo sapiens, UniProt P07949, V804L) | – | 79 |

A few entries again (block 2):
| target | remaining binding |
| --- | --- |
| PIP5K1A (Homo sapiens, UniProt Q99755) | 100% |
| KIT (Homo sapiens, UniProt P10721, V559D/V654A) | 98% |
| NUAK2 (Homo sapiens, UniProt Q9H093) | 100% |
| PRKX (Homo sapiens, UniProt P51817) | 100% |
| EPHA6 (Homo sapiens, UniProt Q9UF33) | 100% |
| DYRK2 (Homo sapiens, UniProt Q92630) | 84% |
| DCLK3 (Homo sapiens, UniProt Q9C098) | 100% |
| MAP2K6 (Homo sapiens, UniProt P52564) | 100% |
| MAP3K19 (Homo sapiens, UniProt Q56UN5) | 100% |
